Published values of several laboratories.
Protocols differ between the studies behind these lines. ± gives the spread as reported.

SMILES | assay | test system | setting | how to read | measurement | result
O=C(O)CCC(=O)O.[2H]C([2H])([2H])Oc1cc(C)c2[nH]ccc2c1CN1CC[C@@H](C2CC2)C[C@H]1c1ccc(C(=O)O)cc1 | multiple ascending dose | healthy Chinese subjects | 125 mg twice daily | – | subjects with proteinuria TEAE | 25%
CCCOc1ccc(-c2ccc(C#N)cc2)cc1 | – | Sprague-Dawley rat, female, fetus | 1000 ng/mL in perfusate, 50 (unit not given), middle dose, mixture of 21 LCMs | – | fetal accumulation | 5.9 ± 1.7 ng/g
O=C(N[C@H](Cc1c[nH]c2ccccc12)C(=O)Nc1ccncc1)c1ccc(N2CCN(c3ccc(F)cc3F)CC2)cc1F | – | Swiss Webster mouse, female, lung | oral, 50 mg/kg, 8 h, 20% HPβCD vehicle | – | concentration | 15.8 µM
C[C@@H]1COCCN1c1cc(C2([S@](C)(=N)=O)CC2)nc(-c2cc[nH]c3nccc2-3)n1 | – | Japanese advanced solid tumour patients | oral, 240 mg twice daily, CTCAE grade ≥3 | – | Rash incidence | 0%
C=CCN1CC(=O)N2[C@@H](Cc3ccc(O)cc3F)C(=O)N(Cc3cccc(N4CC(N5CCN(CC)CC5)C4)n3)C[C@@H]2N1C(=O)NCc1ccccc1 | – | advanced solid tumour patients | oral, 80 mg twice daily, grade ≥3, dose-escalation | – | treatment-related ALT increased | 0%
COc1cc2c3c(n(CCCN4CCOCC4)c(=O)c2cc1OC)-c1cc2c(cc1C3=O)OCO2 | – | beagle dog, female, plasma | intravenous infusion, 50 mg/m^2, 1 h infusion, vehicle 2 | – | Vz | 542 ± 213 L/m²
O=C(Nc1cccc(Nc2ncc(Br)c(NCCc3c[nH]cn3)n2)c1)N1CCCC1 | PAMPA | PBS | 5 h, pH 7.4 | – | effective permeability | 1.39 nm/s
COc1ccc2c(c1)CN(C(=O)CCN1CCC(Cc3ccccc3)CC1)CC[S@@+]2[O-] | telemetry | conscious dog | intravenous, 2 mg/kg, 2 h | – | heart rate | 77 ± 12 beats/min
O=C(Nc1nc2cccc(-c3ccc(CN4CCS(=O)(=O)CC4)cc3)n2n1)C1CC1 | measured: lipase increased | human rheumatoid arthritis patients | oral, 150 mg once daily, 4 weeks, regardless of relatedness | – | treatment-emergent adverse events | 0%
Cl.[2H]C([2H])([2H])CC(=O)c1cnc(NC(=O)C2CC2)cc1Nc1cccc(-c2ncn(C([2H])([2H])[2H])n2)c1OC | – | human, fasted, multiple dose | oral, 20 mg twice daily, tablet, day 14, geometric mean | – | terminal elimination rate constant | 2e-05 s⁻¹
C=CC(=O)NC1CCN(c2ncc3ncnc(Nc4ccc(Oc5ccc6c(c5)ncn6C)c(C)c4)c3n2)CC1 | measured: total radioactivity | healthy male human, whole blood and plasma | oral, 60 mg, 1 h, geometric mean | – | blood-to-plasma ratio | 0.767
Nc1nc2c(nc([N+](=O)[O-])n2[C@@H]2O[C@H](CO)[C@@H](O)[C@H]2O)c(=O)[nH]1 | – | citrate phosphate buffer | 0.5 mM, pH 5.00, 37 °C | – | depurination half-life | 15.1 h
Cc1cc(C)c(CNC(=O)c2cc(Cl)c3c(c2C)O[C@@](C)([C@H]2CC[C@H](N(C)C)CC2)O3)c(=O)[nH]1 | – | human relapsed/refractory NHL | oral, 200 mg once daily, onset after cycle 1 day 1 | – | disease progression grade ≥3 | 8.3%
CCc1cc(C(=O)NC)c2nccc(N3CCc4c(cc(Cn5ccnc5)cc4-c4cn(C)nc4C(F)(F)F)C3=O)c2c1 | – | Sprague Dawley rats | oral, 100 mg/kg once daily, 7 days | baseline: vehicle | serum cholesterol change | 3.6%
CN(C(=O)n1cnc(-c2cccnc2)c1)C1CCCCC1 | – | Wistar rat, hippocampus | oral, 10 mg/kg/day of BIA 10-2474, 48 h, repeated 5 days | – | concentration | 9.5 ± 0.1 ng/g
C=CC[C@@]1(C)NC(=O)CNC(=O)[C@H](Cc2c[nH]c3ccccc23)NC(=O)[C@H](CC(=O)O)NC(=O)[C@H](CCC(N)=O)NC(=O)[C@H](Cc2c[nH]c3ccccc23)NC(=O)[C@H](C(C)C)NC(=O)[C@@H](NC(=O)[C@@H](NC(C)=O)[C@@H](C)CC)CSSC[C@@H](C(=O)N[C@H](C(N)=O)[C@@H](C)O)NC(=O)[C@H](CCCNC(=N)N)NC(=O)[C@H](Cc2c[nH]cn2)NC1=O | isocratic RP-HPLC, C18 | 32% acetonitrile, phosphate pH 7.4, 1% TFA | 25 °C | – | retention factor | 1.366 ± 0.006
CN(CCCNC(=O)c1cccc(C(=O)O)c1)CCCNC(=O)c1cc(NC(=O)c2cc(NC(=O)c3cc(NC(=O)c4cc(NC(=O)[C@H](N)CCNC(=O)c5cc(NC(=O)c6cc(NC(=O)c7nc(NC(=O)c8nccn8C)cn7C)cn6C)cn5C)cn4C)cn3C)cn2C)cn1C | dynamic light scattering | 0.1% DMSO in PBS | 25 °C | – | critical aggregation concentration | 4 µM
